Experimental data pooled from the literature.
Numbered parts are unrelated; each lists some results of a single study.

Block 1 — method: RNA Bind-n-Seq; molecule type: RNA; matrix: in vitro; concentration: 365 nM; reference: no-protein control; direction: higher = stronger binding; quantity: RBNS enrichment (R)
Target: RNA binding protein fox-1 homolog 2, RRM domain, GST-SBP tag (RBFOX2, Homo sapiens, UniProt O43251-10, residues 100-194)
Notes: natural RNA segment, single round, ends assumed
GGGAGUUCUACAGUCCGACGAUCCCCACCCAAUCCAGCCAGUUCCCUUCAGGGAGGUUGGUGUGACCUGCUGUAGGUUCACCUUUUAGGCUACGGAUAUUGACAGGGUUUUAGAAUUGCUCUUGGUGCCUCCCUGGAAUUCUCGGGUGCCAA: 0.567
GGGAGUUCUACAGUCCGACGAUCAUUUAUUUAUUGAAGAUGUCCCCCAGGGGCCCAGGCUCCCCUGCCCGCCCCAAGCCCUGCCCCUCCUGUACAUAUAGCCCUUUCCCCACUCAGCUGUGGUGUCUCGUGGCUGGAAUUCUCGGGUGCCAA: 0.614
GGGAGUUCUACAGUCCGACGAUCAGGAUGAGGGGCCCUGACCCUGUGUCUCCAACUGCUGCACCCCAUCCCGACCCUGUCUCCGCCACCUCGCAGCCCCAUUAAAGCGCUCUCAUCUGGGCUCCGGUUCACUCUGGAAUUCUCGGGUGCCAA: 0.691
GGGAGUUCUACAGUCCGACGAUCUGUCUUCUACCUGCAUUUUGGCAUCAGAGCCCCCCAGCCCACCCACCACAGGCAAUUACUAGCCCUAGUUGAUAGGUGAGGUGGGUGAAGAAGGCUGGAGGUGACAUGUCUGGAAUUCUCGGGUGCCAA: 0.575
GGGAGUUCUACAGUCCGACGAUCCAAGUUUGAAAAGUUCAAAUUAACCACUUUUGACUAGGUAAGUCUUUCUAAAAACCAUUUAAAGCUAACUGGGUCUUAGCAUCCUCCUGUGUAUGGAAGAGACAGGUGACUGGAAUUCUCGGGUGCCAA: 0.406
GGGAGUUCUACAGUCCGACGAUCUUCUGGAUUCAGCCACUAAGGACAUCUGUGGUACAAGGUGCACCUUUGCAAAUGUGUAUGAUGCCAGUUGUUUGGACUCUUGGAAAACACCACUGGAGGGCUUUGCUCCAUGGAAUUCUCGGGUGCCAA: 0.511
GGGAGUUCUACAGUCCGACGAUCAACAGGAGUGCUUUACCCAAGUCAGUCAUGGAUAUGAUAUCACUGCUCUUUAUUUAAAAGUAAACUUUGGGCACAGGAACCAUAUGGGAACAUUCAGCUUGUUUAAAAAAUGGAAUUCUCGGGUGCCAA: 0.921

Block 2 — method: RNA Bind-n-Seq; molecule type: RNA; matrix: in vitro; concentration: 1 µM; notes: whole 134-nt RNA, ends assumed; added: 150 mM KCl; reference: input library; direction: higher = stronger binding; quantity: log2 enrichment
Target: Ras GTPase-activating protein-binding protein 1, C-terminal RGG region (G3BP1, Homo sapiens, UniProt Q13283)
Chain of UniProt Q13283 (whole entry, looked up): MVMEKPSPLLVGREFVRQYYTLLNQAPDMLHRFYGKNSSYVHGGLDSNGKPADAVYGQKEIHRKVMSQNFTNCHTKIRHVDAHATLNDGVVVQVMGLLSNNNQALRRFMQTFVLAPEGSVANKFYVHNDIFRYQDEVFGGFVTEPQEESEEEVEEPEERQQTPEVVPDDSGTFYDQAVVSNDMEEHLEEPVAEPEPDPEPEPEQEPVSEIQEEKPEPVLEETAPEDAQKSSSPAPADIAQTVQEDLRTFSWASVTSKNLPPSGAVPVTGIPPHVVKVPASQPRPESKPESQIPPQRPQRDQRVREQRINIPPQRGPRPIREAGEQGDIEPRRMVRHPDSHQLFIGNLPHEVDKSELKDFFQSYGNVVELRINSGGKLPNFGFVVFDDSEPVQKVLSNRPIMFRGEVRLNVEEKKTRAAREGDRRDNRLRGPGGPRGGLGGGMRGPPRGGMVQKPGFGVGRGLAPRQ
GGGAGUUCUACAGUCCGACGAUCUUUCACAGAGAAGCAAAUGCUGGCACAAGGAUACCCUGCUUACACGACAUCGUGCGCCUGGCUGGGGUACUCAGAUGACACGUUGAAGCAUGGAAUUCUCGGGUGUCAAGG: -0.982
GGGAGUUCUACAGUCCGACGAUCGCAGGAAGUAAAAACAAAUGGAAAUGCUUCGGAUAAAAGCAGGGGUGGGGGUUGCUAAGGAAAGGGUGGGAUGGGAGUGGGUAAAGAGUUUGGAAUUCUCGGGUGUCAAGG: 1.75
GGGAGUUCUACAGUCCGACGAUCACCAUGCAGGUGGGCAUCUUUGGGAAGUGGGGCAAGGGGGGGAUAGGGAGGGGGGUAACACUUUGGGAACAGGUGGUCCCAGGUCGAAACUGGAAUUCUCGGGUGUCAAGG: -1.26
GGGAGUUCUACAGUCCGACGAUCCUCAAGUCCUGUGCUACACAUCGUAUGUACCGAAUCGGGGCGGGGCGGGCGGGAAAGUAUUAUGUUACGCCGUUCGGAUCUGCACUUCCAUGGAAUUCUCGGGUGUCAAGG: 2.03
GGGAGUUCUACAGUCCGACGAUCCACAGACAACACGUACCCACACAGACACAGAGGGAAGGGGUUGGGAUGGGGACAGGGUGCACAGCAGGGCGGGGUAGGACCCCAGCCCCUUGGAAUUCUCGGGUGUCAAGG: -0.342
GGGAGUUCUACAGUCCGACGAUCAAAAUGCAGGUGGGCAUCUUUGGGAAGUGGGGCAAGGGGGGGAUAGGGAGGGGGGUAACACUUUGGGAACAGGUGGUCCCAGGUCGUUUCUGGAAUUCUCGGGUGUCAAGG: -1.14
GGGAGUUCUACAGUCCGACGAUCAAGUCGCGUGUCUAGGUGAGUCGCGGUGGGUCCUCGCUUGCAGUUCAGCGACCACGGUGGGUACCGUUUUUGCGAGGAUUGUUUGUCCCCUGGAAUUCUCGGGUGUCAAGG: -1.5
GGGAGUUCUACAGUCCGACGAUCCAAGUCCUGUGCUACACAUCGUAUGUACCGAAUCGGGAAAGGGGAAAGGAAAGGGAAAGUAUUAUGUUACGCCGUUCGGAUCUGCACUUCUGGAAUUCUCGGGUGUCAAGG: -1.13
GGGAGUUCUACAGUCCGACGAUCCAAGUCCUGUGCUACACAUCGUAUGUACCGAAUCGGUUUUUGGUUUUUUUGGUGGAAAGUAUUAUGUUACGCCGUUCGGAUCUGCACUUCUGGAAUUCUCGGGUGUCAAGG: -1.47
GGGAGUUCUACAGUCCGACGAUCUCCUGUGCUACACAUCGUAUGUACCGAAUCAAACCCCCAAAUUUUUAAAUUUUUUUAAAAAAGUAUUAUGUUACGCCGUUCGGAUCUGCAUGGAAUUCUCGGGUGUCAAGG: -0.566
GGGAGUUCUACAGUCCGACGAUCUGGGAGGUGGAUUUUGUUUAUUUUUCUAGCUCAUUUCCAGGGGUGGGAAUUUUUUUUUAAUAUGUGUCAUGAAUAAAGUUGUUUUUGAAAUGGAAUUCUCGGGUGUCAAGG: 3.85
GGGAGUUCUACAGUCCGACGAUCAGUCCUGUGCUACACAUCGUAUGUACCGAAUCAAACCCAAACCCCCAAACCCCCAAAAAAGUAUUAUGUUACGCCGUUCGGAUCUGCACUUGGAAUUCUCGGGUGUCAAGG: -0.972

Block 3 — method: protein-binding microarray; molecule type: double-stranded DNA, one strand shown; matrix: in vitro; concentration: 250 nM; notes: 60-bp whole probe; added: salmon DNA 0.4 mg/ml; reference: random background probes; direction: higher = stronger binding; quantity: log fluorescence; constant ends, left off below: GCCTAGCAC … GTCTTGATTCGCTTGACGCTGCTG
Target: Interferon regulatory factor 7, full length, phosphomimetic (IRF7, Homo sapiens, UniProt Q92985, residues 1-503, S101K/S471D/S472D/S475D/S476D/S477D/S483D/S484D/S487D)
Residues (chain): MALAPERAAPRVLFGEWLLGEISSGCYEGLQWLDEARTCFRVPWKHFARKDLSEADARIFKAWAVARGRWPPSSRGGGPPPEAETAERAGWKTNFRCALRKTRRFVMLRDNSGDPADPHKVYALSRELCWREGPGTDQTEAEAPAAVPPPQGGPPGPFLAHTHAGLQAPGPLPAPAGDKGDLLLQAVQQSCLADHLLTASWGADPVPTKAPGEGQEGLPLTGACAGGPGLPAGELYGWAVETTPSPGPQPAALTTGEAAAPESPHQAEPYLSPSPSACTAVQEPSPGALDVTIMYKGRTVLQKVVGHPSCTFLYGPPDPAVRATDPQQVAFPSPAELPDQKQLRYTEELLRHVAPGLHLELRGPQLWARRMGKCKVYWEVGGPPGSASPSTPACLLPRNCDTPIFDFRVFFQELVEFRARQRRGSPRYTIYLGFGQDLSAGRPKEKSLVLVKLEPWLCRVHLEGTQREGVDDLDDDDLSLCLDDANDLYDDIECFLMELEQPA
GACGGTCACGGACTGGGGACGTGCTAG: -0.618 z-score
TTGCTGAAATAATACTGTTAGTGCTAG: -0.476 z-score
AGACAGAAGGGAAACAGGTTGGTGCTA: -0.0979 z-score
GACGAACTGCGTATCGAGACGTGCTAG: -0.423 z-score
GACGGCCTCGGTTTCGGGACGTGCTAG: 4.17 z-score
TTAGGTATCTGGTATCGGTTAGTGCTA: 1.11 z-score
GAACCTTCAGCTCTAGGTTCGTGCTAG: 1.29 z-score
TTTGGTCTCCTTCTCCTTTAGTGCTAG: 0.645 z-score
GACGGTATCCTTTTCCCGACGTGCTAG: 1.39 z-score
GCCGAACTGAGTCTCGAGACGTGCTAG: 0.496 z-score
GACGATATCCGTTTCGAGACGTGCTAG: 1.78 z-score
GACGTTATCGGGTTTCGAGACGTGCTA: 2.72 z-score

Mixed results
PhoQ, residues 284 288 289 292 302 303 HSYLQF — fold induction (PhoP, residues 12 14 15 18 19 LHHVQ (Escherichia coli, UniProt P23836); Sort-seq, measured: YFP reporter; E. coli; PhoQ-PhoP variant library, added: 10 µM Mg2+; reference: high Mg2+ state, higher = stronger signaling): 10.5

Excerpt of the above (block 3):
TTTGGTCTCCTTCTCCTTTAGTGCTAG: 0.645 z-score
GACGGTATCCTTTTCCCGACGTGCTAG: 1.39 z-score
